Assay results of several laboratories.
Each line is one published result; not all experiments were run side by side. ± gives the spread as reported.
CSK: Tyrosine-protein kinase CSK (CSK, Homo sapiens, UniProt P41240)
Chain of UniProt P41240 (whole entry, looked up): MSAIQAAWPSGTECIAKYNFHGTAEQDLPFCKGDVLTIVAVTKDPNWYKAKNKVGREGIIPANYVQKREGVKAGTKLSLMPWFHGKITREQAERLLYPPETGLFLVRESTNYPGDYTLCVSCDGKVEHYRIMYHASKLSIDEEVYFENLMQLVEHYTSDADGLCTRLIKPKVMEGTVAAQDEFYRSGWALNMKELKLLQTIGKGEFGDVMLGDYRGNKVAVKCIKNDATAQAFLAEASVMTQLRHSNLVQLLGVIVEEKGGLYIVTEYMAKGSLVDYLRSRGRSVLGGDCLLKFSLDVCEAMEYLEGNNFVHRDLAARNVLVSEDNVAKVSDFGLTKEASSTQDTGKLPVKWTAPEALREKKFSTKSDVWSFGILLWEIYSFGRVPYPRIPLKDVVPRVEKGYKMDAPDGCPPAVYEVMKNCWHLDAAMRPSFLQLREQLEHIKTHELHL
USP20 ZnF-UBD domain: Ubiquitin carboxyl-terminal hydrolase 20, ZnF-UBD domain (USP20, Homo sapiens, UniProt Q9Y2K6)
Chain of UniProt Q9Y2K6 (whole entry, looked up): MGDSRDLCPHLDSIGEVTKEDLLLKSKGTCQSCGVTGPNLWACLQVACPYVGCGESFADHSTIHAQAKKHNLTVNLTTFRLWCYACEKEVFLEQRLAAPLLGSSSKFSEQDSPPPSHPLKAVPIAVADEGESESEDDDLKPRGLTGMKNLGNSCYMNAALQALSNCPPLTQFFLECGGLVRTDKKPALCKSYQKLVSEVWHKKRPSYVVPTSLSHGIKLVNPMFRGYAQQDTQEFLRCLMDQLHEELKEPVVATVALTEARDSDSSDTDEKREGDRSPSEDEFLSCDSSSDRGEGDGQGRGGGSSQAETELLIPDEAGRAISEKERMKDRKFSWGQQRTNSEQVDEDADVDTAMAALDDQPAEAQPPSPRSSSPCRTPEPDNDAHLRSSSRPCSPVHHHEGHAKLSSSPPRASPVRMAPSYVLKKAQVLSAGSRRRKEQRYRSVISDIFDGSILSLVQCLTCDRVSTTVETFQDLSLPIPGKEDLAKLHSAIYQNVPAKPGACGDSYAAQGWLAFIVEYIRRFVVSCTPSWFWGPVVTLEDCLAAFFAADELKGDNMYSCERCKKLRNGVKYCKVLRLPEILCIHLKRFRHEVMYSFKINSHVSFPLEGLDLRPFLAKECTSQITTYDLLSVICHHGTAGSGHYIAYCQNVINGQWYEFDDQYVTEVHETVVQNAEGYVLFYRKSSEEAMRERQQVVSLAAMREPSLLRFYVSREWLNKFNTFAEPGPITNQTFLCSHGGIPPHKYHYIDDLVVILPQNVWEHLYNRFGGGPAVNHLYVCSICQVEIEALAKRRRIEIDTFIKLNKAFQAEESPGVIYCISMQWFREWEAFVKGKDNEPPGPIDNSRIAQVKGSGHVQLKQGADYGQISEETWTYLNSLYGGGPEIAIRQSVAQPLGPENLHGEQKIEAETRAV
Chain of UniProt O15197 (whole entry, looked up): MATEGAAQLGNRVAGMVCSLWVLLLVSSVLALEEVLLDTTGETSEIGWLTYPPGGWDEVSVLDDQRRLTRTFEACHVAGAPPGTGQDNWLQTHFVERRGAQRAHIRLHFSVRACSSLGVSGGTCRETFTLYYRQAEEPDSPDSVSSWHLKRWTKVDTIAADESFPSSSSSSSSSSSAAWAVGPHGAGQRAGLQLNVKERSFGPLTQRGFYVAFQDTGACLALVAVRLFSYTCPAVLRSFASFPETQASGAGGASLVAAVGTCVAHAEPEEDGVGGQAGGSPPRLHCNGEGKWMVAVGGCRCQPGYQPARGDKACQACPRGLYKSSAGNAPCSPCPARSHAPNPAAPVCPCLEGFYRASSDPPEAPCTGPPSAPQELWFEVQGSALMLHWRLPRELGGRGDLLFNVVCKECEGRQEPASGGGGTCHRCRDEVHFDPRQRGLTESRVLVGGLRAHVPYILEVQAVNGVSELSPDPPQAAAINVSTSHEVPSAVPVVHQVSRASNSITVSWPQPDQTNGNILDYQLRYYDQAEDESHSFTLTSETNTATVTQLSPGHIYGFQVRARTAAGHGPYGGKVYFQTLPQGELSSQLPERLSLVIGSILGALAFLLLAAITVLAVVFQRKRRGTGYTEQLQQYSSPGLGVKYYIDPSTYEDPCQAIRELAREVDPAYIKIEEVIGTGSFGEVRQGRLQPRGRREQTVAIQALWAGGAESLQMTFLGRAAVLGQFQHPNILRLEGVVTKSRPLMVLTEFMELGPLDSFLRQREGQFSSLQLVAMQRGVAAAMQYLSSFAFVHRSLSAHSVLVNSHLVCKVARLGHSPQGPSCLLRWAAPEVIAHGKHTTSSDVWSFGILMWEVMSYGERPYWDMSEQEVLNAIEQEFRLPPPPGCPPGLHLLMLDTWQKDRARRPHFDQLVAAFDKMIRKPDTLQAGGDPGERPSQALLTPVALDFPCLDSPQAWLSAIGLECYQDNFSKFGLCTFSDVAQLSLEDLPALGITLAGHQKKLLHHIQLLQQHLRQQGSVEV
Chain of UniProt Q8NG66 (whole entry, looked up): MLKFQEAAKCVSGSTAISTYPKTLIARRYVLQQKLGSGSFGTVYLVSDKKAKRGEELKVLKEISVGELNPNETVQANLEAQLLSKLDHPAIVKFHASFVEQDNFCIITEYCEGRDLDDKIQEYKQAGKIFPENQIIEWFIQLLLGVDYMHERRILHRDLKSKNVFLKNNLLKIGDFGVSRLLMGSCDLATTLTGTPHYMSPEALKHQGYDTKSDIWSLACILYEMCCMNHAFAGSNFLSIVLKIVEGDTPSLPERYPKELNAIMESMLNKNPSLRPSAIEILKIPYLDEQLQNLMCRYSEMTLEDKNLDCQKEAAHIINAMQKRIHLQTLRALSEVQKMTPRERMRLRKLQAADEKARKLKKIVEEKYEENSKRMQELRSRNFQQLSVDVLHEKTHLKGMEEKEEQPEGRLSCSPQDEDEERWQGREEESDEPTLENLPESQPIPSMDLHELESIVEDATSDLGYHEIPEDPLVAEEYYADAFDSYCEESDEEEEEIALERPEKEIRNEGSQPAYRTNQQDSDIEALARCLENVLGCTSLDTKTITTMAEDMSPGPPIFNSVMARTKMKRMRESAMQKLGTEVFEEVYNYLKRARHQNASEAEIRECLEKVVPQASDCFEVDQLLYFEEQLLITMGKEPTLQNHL
Chain of UniProt P34947 (whole entry, looked up): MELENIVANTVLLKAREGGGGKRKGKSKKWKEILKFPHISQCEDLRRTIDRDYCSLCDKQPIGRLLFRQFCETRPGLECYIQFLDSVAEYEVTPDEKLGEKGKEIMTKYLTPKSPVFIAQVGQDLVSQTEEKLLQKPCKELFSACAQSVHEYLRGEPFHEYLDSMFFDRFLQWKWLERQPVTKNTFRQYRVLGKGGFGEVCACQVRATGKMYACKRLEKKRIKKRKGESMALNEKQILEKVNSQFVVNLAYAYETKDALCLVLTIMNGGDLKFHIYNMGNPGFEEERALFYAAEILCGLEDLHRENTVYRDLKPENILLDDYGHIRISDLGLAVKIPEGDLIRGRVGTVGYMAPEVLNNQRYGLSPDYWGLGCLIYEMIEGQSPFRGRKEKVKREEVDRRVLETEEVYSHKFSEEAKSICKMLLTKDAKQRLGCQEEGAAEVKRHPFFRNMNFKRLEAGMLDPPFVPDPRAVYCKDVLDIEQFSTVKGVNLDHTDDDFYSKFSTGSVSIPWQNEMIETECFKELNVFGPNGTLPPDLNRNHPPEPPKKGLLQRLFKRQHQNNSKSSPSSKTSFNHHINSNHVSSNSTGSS
Chain of UniProt O75914 (whole entry, looked up): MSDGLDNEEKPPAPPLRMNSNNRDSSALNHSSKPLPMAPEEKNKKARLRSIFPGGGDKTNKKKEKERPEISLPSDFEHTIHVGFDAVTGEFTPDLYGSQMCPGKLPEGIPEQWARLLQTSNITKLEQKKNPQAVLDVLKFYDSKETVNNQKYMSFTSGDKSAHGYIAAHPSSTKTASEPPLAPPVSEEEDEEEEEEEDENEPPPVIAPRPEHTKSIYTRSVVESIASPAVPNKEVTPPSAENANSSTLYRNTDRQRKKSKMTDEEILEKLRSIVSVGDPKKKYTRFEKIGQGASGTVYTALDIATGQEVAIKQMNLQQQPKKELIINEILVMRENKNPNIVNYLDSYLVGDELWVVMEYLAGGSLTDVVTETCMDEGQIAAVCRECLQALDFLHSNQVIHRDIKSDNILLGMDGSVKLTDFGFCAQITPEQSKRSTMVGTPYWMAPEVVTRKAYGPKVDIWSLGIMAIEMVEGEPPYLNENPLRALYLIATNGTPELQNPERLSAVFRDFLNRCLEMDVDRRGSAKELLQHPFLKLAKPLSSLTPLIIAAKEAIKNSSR
Chain of UniProt P51617 (whole entry, looked up): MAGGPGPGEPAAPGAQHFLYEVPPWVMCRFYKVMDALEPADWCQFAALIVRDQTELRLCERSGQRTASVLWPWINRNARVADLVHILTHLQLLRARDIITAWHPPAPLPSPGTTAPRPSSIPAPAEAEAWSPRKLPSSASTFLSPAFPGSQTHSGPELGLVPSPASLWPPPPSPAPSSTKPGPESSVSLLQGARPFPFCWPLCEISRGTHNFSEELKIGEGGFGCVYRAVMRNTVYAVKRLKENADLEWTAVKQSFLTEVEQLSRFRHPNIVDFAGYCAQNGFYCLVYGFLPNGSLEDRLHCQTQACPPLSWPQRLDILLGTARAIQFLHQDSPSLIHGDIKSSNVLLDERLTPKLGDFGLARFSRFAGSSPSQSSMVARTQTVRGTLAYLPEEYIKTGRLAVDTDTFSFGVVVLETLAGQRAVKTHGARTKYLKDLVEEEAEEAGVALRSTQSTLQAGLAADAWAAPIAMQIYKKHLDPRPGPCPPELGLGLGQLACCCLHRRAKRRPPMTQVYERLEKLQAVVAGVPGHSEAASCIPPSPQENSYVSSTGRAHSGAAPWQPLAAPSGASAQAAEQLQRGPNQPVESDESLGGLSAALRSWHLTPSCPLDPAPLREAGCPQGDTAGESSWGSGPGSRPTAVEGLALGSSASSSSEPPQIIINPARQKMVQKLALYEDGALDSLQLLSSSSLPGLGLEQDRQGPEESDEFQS

Compound	target or system	test	test system	conditions	scale	endpoint	result
COc1ccc(F)cc1C(=O)NCc1ccc(-c2nn([C@@H](C)C(F)(F)F)c(N)c2C(N)=O)cc1	CSK	kinase activity, inhibitor, HotSpot radiometric	–	100 nM, together with: ATP 10 µM	–	remaining activity	79.7 ± 0.9%
COCCOCCOCCOc1ccc(C#Cc2cc(CN3CCN(Cc4cc(C#Cc5ccc(OCCOCCOCCOC)cc5)cc(C(=O)O)n4)CCN(Cc4cc(SC[C@H](N)C(=O)NC[C@H]5CC[C@H](C(=O)N[C@@H](Cc6ccc7ccccc7c6)C(=O)NCCCC[C@H](NC(=O)N[C@@H](CCC(=O)O)C(=O)O)C(=O)O)CC5)cc(C(=O)O)n4)CC3)nc(C(=O)O)c2)cc1 [yttrium-86 labelled]	–	–	mouse, kidneys	intravenous, 6 h	–	tissue uptake	28.4 ± 0.03 %ID/g
NC/C(=C\F)COc1cccc(Cn2c(=S)[nH]c(=O)c3[nH]cnc32)c1	Peroxidasin homolog (PXDN, Homo sapiens, UniProt Q92626)	Amplex UltraRed	–	2.5 µM	baseline: control	remaining activity	88%
CNCC(=O)O	Sodium- and chloride-dependent glycine transporter 2 (Homo sapiens, UniProt Q9Y345, S479G)	glycine uptake, inhibitor, [3H]glycine uptake	–	1000 µM, S479G mutant, log concentration 1, together with: [3H]glycine	baseline: no inhibitor	remaining activity	77.5%
O=C(O)CCn1sc2ccccc2c1=O	USP20 ZnF-UBD domain	–	–	–	–	Kd	> 1 mM
Cc1cc(Nc2cc(N3CCN(C)CC3)nc(Sc3ccc(NC(=O)C4CC4)cc3)n2)[nH]n1	GRK5 (Homo sapiens, UniProt P34947)	kinase activity, KinaseProfiler	–	0.03 µM, species human	baseline: control	remaining activity	97%
NS(=O)(=O)c1ccc(NCC(=O)O)cc1	USP20 ZnF-UBD domain	–	–	–	–	Kd	> 1 mM
COc1cc(N2CCN(C)CC2)ccc1Nc1nc(N)n(C(=S)NCc2c(Cl)cccc2Cl)n1	EPHB6 (Homo sapiens, UniProt O15197)	enzyme activity	–	10 µM	baseline: control	remaining activity	0%
C=CC(=O)N1CCC[C@@H](n2nc(-c3ccc(Oc4ccccc4)cc3)c3c(N)ncnc32)C1	IRAK1 (Homo sapiens, UniProt P51617)	–	–	1 µM	–	remaining activity	324%
O=C(O)c1ccc(Nc2ncc3c(n2)-c2ccc(Cl)cc2C(c2c(F)cccc2F)=NC3)cc1	MST3(h)	kinase activity	–	1 µM	–	remaining activity	107%
O=C(c1ccc(F)cc1)C1CCN(CCn2c(=O)[nH]c3ccccc3c2=O)CC1	Diacylglycerol kinase beta (Dgkb, Rattus norvegicus, UniProt P49621)	enzyme activity, DAG kinase	HEK293T lysate overexpressing	50 µM, unit not given, together with: [γ32P]-ATP	baseline: DMSO vehicle	remaining activity	1.08
COc1cc(-c2cncc3c2CN(C)Cc2cc(N4CCNCC4)ccc2-3)cc(OC)c1OC	NEK11 (Homo sapiens, UniProt Q8NG66)	kinase activity	–	1 µM, human enzyme, together with: ATP 10 µM	baseline: DMSO control	remaining activity	112%
O=C(NC1CCC1)c1ccc2nc(-c3cccc(NS(=O)(=O)NCCN4CCCCC4)c3)cn2c1	KIT (Homo sapiens, UniProt P10721, T670I/V559D)	enzyme activity	–	10 µM	–	remaining activity	92%
COc1cc(F)ccc1-c1ncnc(Nc2cccc(C[S@](C)(=N)=O)c2)n1	CSF1R (Homo sapiens, UniProt P07333)	kinase activity	–	10 µM, together with: 10 µM ATP	–	remaining activity	33%
COc1cc(Nc2ncc3c(n2)-c2ccc(Cl)cc2C(c2c(F)cccc2OC)=NC3)ccc1C(=O)O	MAP4K2	kinase activity	–	1 µM	–	remaining activity	57%
C=CC(=O)N1CCC[C@@H](n2nc(-c3ccc(Oc4ccccc4)cc3)c3c(N)ncnc32)C1	CSK	kinase activity, inhibitor, HotSpot radiometric	–	100 nM, together with: ATP 10 µM	–	remaining activity	14.2 ± 0.1%
c1cnc2ccc(Nc3nc(NC4CC4)c4nc[nH]c4n3)cc2c1	FLT1 (Homo sapiens, UniProt P17948)	kinase activity, inhibitor, SelectScreen kinase profiling	–	1 µM	baseline: control	remaining activity	101%
Nc1ncc2c(n1)-c1c([nH]c3ccc(-c4ccc(F)cc4)cc13)CCC2	PAK3 (Homo sapiens, UniProt O75914)	kinase activity, inhibitor, radiometric	–	1 µM, together with: ATP at Km	–	remaining activity	98%
CNc1ncc2c(/C=C/C(=O)N3CCC(OC)CC3)nn(Cc3cccc(C(F)(F)F)c3)c2n1	EIF2AK3 (Homo sapiens, UniProt Q9NZJ5)	kinase activity, inhibitor	–	1 µM	baseline: untreated control	remaining activity	99%

Excerpt of the above:
Compound	target or system	test	test system	conditions	scale	endpoint	result
COc1cc(N2CCN(C)CC2)ccc1Nc1nc(N)n(C(=S)NCc2c(Cl)cccc2Cl)n1	EPHB6 (Homo sapiens, UniProt O15197)	enzyme activity	–	10 µM	baseline: control	remaining activity	0%
